# Published values collected from several papers.
# Compare with care: the assays were run in different laboratories. “And” joins repeats or separate records; there may be more than shown. ± marks the error that the study gave.
SMILES,tested on,assay,test system,conditions,scale,endpoint,result
O=C(N[C@@H](CCCCNC(=O)c1ccc([N+](=O)[O-])o1)c1nc2ccccc2[nH]1)c1ccc(-c2ccccn2)cc1,"STING1 (Homo sapiens, UniProt Q86WV6, H232R)","reporter gene, inhibitor",THP1-Dual KI-hSTING-R232,"24 h, 1 h preincubation, with: diABZI 500 nM",,EC50,5.3 µM
CC(C)c1ccc(N(C)c2ccc3c(c2)OCC[C@H]3CNc2cnccc2C(=O)O)cc1,NUGC-4,"cell growth or viability, ATP luminescence",,7 days,,IC50,0.0106 µM
C=CC(=O)N1[C@H](c2ccc3c(c2)OCO3)c2[nH]c3ccccc3c2C[C@@H]1C(=O)NC,rat DRG neurons,,,"30 µM, 48 h, with: vincristine 40 nM",,mean neuron degeneration,15.4%
O=C(C[Se]C(=O)c1ccccc1Nc1ccccc1)Nc1cccc(C(F)(F)F)c1,NCI60 breast subpanel mean,cell growth,,,,TGI,4.29 µM
Nc1nc(-c2ccccc2F)nc2[nH]nc(Nc3ccc(F)cc3)c12,HeLa Ohio,,,72 h,,CC50,> 148 µM
CO[C@@H]1[C@@H](OC(N)=O)[C@@H](O)[C@H](Oc2ccc3c(O)c(NC(=O)c4ccc(O)c(CC=C(C)C)c4)c(=O)oc3c2C)OC1(C)C,DLD-1 BRCA2-/-,,,"100 µM, replicate B",relative to: untreated,colony survival,0.312%
CSC(=S)N/N=C(\C)c1ccc(Nc2nnc(-c3ccc(Cl)cc3)c3ccccc23)cc1,HepG2,"cell growth or viability, MTT",,1.25 µM,,cell death,96.4%
O=C(O)c1ccc(-c2ccc(O)cc2)c2c1C=C(c1ccc(O)cc1)OC2(c1ccc(O)cc1)c1ccc(O)cc1,NCI-H460,annexin V/PI flow cytometry,,"10 µM, 24 h",,apoptotic cells,14.4%
COc1cc(N2CCN(C(=O)C3CCCN3)CC2)ccc1Nc1ncc(Cl)c(Nc2ccccc2P(C)(C)=O)n1 (centres unmarked),NCI-H3122,flow cytometry,,"500 nM, 24 h",,cells in S phase,7.8%
COc1ccccc1-c1ccncc1C(=O)Nc1nnc(OCc2ccc(Cl)cc2)s1,DLD-1 parental,,,1 µM,,colony count,78 and 66 and 71 and 76 and 81
Fc1cncc(-c2ccc3[nH]c4ncnc(N[C@H]5CC[C@H](N6CCOCC6)CC5)c4c3c2)c1,U2932,"cell growth or viability, WST-1",,72 h,,GI50,8.7 µM
Cc1cccc(-c2cccc(C)n2)n1.Cc1cccc(-c2cccc(C)n2)n1.F[P-](F)(F)(F)(F)F.F[P-](F)(F)(F)(F)F.[Ru+2].c1ccc2c(-c3nc4c5cccnc5c5ncccc5c4[nH]3)c3ccccc3cc2c1,SK-MEL-28,,,"1% O2, with: green light 523 nm, 100 J/cm2",relative to: dark over light EC50,phototoxicity index,4
Cn1ncc2cc(-c3cncc(Cl)c3N3CCC4(CCNC4=O)CC3)ccc21,LS174T,"microarray, item: NFE2L2",,"concentration not given, 24 h, gene set NRF2",relative to: untreated cells,fold change in expression,2.44
CN1CCCNC(=O)c2cccc(c2)C(=O)NCCCN(C)CCCNc2cccc3c2C(=O)c2cccc(c2C3=O)NCCC1,SAS,"RNA-Seq, item: SMC5 mRNA",,"1 µM, 6 h",relative to: untreated cells,log2 fold change,-0.831
CC1(C)CC[C@@]2(CO)C(=C3C=C[C@@H]4[C@@]5(C)CC[C@H](O)[C@@](C)(CO)[C@@H]5CC[C@@]4(C)[C@]3(C)C[C@@H]2O)C1,"HepG2, negative control siRNA","Western blot, item: Deptor",,"concentration not given, high dose, unit not given, with: ethanol",relative to: β-actin,protein level,1.1 and 1.61 and 1.47
C=C(NC(=O)c1csc(-c2ccc(NC(=O)CCCCCBr)cc2)n1)C(=O)NC(=C)C(=O)OC,C4-2,cell growth or viability,,,,EC50,7.1 µM
CN(C)c1ccc(-n2cc(COC(=O)[C@]3(C)C=C(C(=O)OC(C)(C)C)C(=O)CC3)nn2)cc1,HeLa,quantitative western blot,,"concentration not given, 15 (unit not given), with: EGF",,pERK/ERK ratio,0.221
O=C([O-])CN1CCN(CC(=O)[O-])CCN(Cc2cccc(C(=O)[O-])n2)CC1.[18F-].[Sc+3],,,"mouse, stomach","intravenous, 1 h",,tracer uptake,0.09 %ID/g
O=C(C[Se]C(=O)c1ccc2ccccc2c1)Nc1cccc(C(F)(F)F)c1,"NCI60 prostate subpanel (PC-3, DU-145)","total growth inhibition, inhibitor",,five-dose,,mean TGI,3.58 µM
C#CCOC(=O)[C@@]1(C)C=C(C(=O)Nc2cccc(C(=O)Nc3ccc(C)c(Nc4nccc(-c5cccnc5)n4)c3)c2)C(=O)CC1,SH-SY5Y MKK7 active,"western blot, item: phospho-c-Jun Ser73",,"10 µM, unit not given",relative to: doxycycline without inhibitor,phospho-c-Jun level,0.111
Cc1nn(-c2cccc(N)c2)c(=O)c2cnc(Nc3ccc(N4CCNCC4)cc3)nc12,"FER (Homo sapiens, UniProt P16591)","enzyme activity, inhibitor",,,,IC50,> 10 µM
C=CC(=O)Nc1cccc(Cn2ncc3cnc(Nc4cnn(CCOC)c4)nc32)c1,human ABL1(T315I)-phosphorylated,KINOMEscan,,100 nM,relative to: control,binding,14%
CCN(CC)CC(=O)Nc1cccc(-n2cc(-c3ccc4ccc(-c5cn(-c6cccc(NC(=O)CN(CC)CC)c6)nn5)cc4c3)nn2)c1,RCC4,"PCR angiogenesis array, item: CXCL10",,"5 x IC50, 6 h, normoxia",relative to: untreated,fold regulation,-1
Nc1ncc(-c2cc(-c3cnn(CC(F)(F)F)c3)ncc2F)nc1C(=O)NC1CNCC(F)C1 (centres unmarked),CSNK1A1L,KINOMEscan,,1 µM,relative to: DMSO control,remaining binding,51%
C1=[N+]2CCCC[N+]3=Cc4ccc5[n]4[Au-]23[n]2c1ccc2-c1nc2ccccc2nc1-5.F[P-](F)(F)(F)(F)F,SNB-19,NCI60 five-dose screen,,,,TGI,4.64 -log M
COC(=O)c1cc(NC2=NC(=O)C(=Cc3ccc(C)cc3)S2)ccc1OC(C)=O,MCF7,"GC-MS, item: Dodecanoic acid",,1 µM,relative to: DMSO,metabolite level,-0.35 fold change
Cc1ncsc1-c1ccc(C(C)NC(=O)C2CC(O)CN2C(=O)C(NC(=O)CCCCCCCCCCN2CCCC(Nc3ncc(Cl)c(Nc4ccccc4S(=O)(=O)C(C)C)n3)C2)C(C)(C)C)cc1 (centres unmarked),22Rv1,"RNA-seq, item: TFEB mRNA",,concentration not given,relative to: DMSO,log2 fold change,-2.58
COc1cc2nc(c1)CNCc1cc(OC)cc(n1)CNC2.[Cu+2],,"superoxide dismutase-like activity, McCord-Fridovich NBT",cell-free system,"pH 7.8, with: xanthine/xanthine oxidase",,IC50,0.679 µM
CNS(=O)(=O)Nc1nccc(Cc2c(C)c3ccc(Oc4ncccc4F)cc3oc2=O)c1F,EBC-1,cell viability,,7 days,,IC50,0.032 µM
CCN(C(=O)c1cc(F)ccc1Oc1nncnc1N1CCC2(C1)CN([C@H](CCCN(C)CCOC)C(C)C)C2)C(C)C,A-431,cell growth or viability,,7 days,,GI50,> 10 µM
Cc1cc(NC2CCN(C)CC2)ccc1-c1cc2c(N3CCC[C@H](C(=O)NCc4ccc(OC(F)(F)F)cc4)C3)ncnc2[nH]1,NCI-H3122,"cell growth or viability, MTT",,"0.04 µg/mL, 72 h",,inhibition,47.4%
Nc1nc(-c2ccccc2)nc2[nH]nc(Nc3ccc([N+](=O)[O-])cc3)c12,HeLa Ohio,,,72 h,,CC50,> 144 µM
O=C(C[Se]C(=O)c1cc2ccccc2[nH]1)Nc1cccc(C(F)(F)F)c1,"NCI60 prostate subpanel (PC-3, DU-145)","total growth inhibition, inhibitor",,five-dose,,mean TGI,3.09 µM
COC1CN([C@H]2CC[C@H]([C@@]3(C)Oc4c(Cl)cc(C(=O)NCc5c(SC)cc(C)[nH]c5=O)c(C)c4O3)CC2)C1,,"RNA-seq, item: PCDH17 mouse homolog","mouse, HT-1376 xenograft, whole blood",dose not given,relative to: vehicle,log2 fold change,1.65
Cc1cccc(-c2cccc(C)n2)n1.Cc1cccc(-c2cccc(C)n2)n1.F[P-](F)(F)(F)(F)F.F[P-](F)(F)(F)(F)F.[Ru+2].c1cc2ccc3ccc(-c4nc5c6cccnc6c6ncccc6c5[nH]4)c4ccc(c1)c2c34,SK-MEL-28,cell viability,,"1% O2, with: green light 523 nm, 100 J/cm2",,EC50,47.9 ± 1.5 µM
O=CCNCCOn1c(=O)n(OCCNCCO)c(=O)n(OCCNCCOn2c(=O)n(OCCNCCO)c(=O)n(OCCNCCO)c2=O)c1=O,A549,"cell growth or viability, MTT",,"50 µg/mL, 72 h",,viability,41.9%
O=C(C[Se]C(=O)C12CC3CC(CC(C3)C1)C2)Nc1cccc(C(F)(F)F)c1,"NCI60 prostate subpanel (PC-3, DU-145)",cell growth,,"10 µM, 48 h, one-dose",,mean growth percent,-54%
CCc1ccc(OCc2nnc(SC3CCCC3=O)n2C(C)c2ccccc2)cc1 (centres unmarked),HEK293T STF,"viability, PrestoBlue",,"10 µM, 24 h",,toxicity,8.16%
CCOc1cncc(-c2ccc(NC(=O)C3(c4ccnc(NS(=O)(=O)C5CC5)n4)CCOCC3)nc2)n1,ZR-75-1,"cell growth or viability, ATP luminescence",,72 h,,IC50,10 µM
CC1(C)C[C@@H](Nc2cccc(-c3sc(C(=O)O)c(OCC(=O)O)c3Cl)c2)CCN1S(=O)(=O)Cc1cccc(NC(=O)CN2CCC(c3ccc4c(c3)oc(=O)n4C3CCC(=O)NC3=O)CC2)c1 (some centres unmarked),B16-F10,"HTRF, item: phospho-STAT1 Tyr701",,"0.123 µM, with: IFN-γ",relative to: min-max normalised,pSTAT1 level,35.5% and 37.7% and 41.6% and 33.9% and 34.2% and 39.4%
CNc1ncnc2c1ncn2C1OC(CO)C(O)C1O (centres unmarked),mock-transfected cells,"TGFα shedding, agonist",,10 µM,relative to: unstimulated vehicle control,AP-TGFα release,2.26% and 2.75% and 2.41%

# For quick reference, copied from above:
SMILES,tested on,assay,test system,conditions,scale,endpoint,result
CC(C)c1ccc(N(C)c2ccc3c(c2)OCC[C@H]3CNc2cnccc2C(=O)O)cc1,NUGC-4,"cell growth or viability, ATP luminescence",,7 days,,IC50,0.0106 µM
C=CC(=O)N1[C@H](c2ccc3c(c2)OCO3)c2[nH]c3ccccc3c2C[C@@H]1C(=O)NC,rat DRG neurons,,,"30 µM, 48 h, with: vincristine 40 nM",,mean neuron degeneration,15.4%
O=C(C[Se]C(=O)c1ccccc1Nc1ccccc1)Nc1cccc(C(F)(F)F)c1,NCI60 breast subpanel mean,cell growth,,,,TGI,4.29 µM
Nc1nc(-c2ccccc2F)nc2[nH]nc(Nc3ccc(F)cc3)c12,HeLa Ohio,,,72 h,,CC50,> 148 µM
